# Assay results of several laboratories.
# Numbered parts are unrelated; each lists some results of a single study.

# Set 1 — technique: protein binding microarray; molecule type: double-stranded DNA, one strand shown; matrix: in vitro; concentration: not given; reference: not given; direction: higher = stronger binding
# Target: Histone acetyltransferase KAT6A, both winged helices, GST fusion (KAT6A, Homo sapiens, UniProt Q92794, residues 1-181)
# Notes: 8-mer, flanks averaged, mean of 2 arrays, mostly near background
# Target sequence (chain): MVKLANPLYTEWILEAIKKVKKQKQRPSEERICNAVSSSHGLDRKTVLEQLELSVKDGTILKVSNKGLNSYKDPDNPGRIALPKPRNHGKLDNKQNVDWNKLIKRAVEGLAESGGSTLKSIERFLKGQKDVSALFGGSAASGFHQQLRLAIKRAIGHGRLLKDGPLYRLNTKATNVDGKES
Oligonucleotide,E-score
CCTAAACG,0.091
GCTTATCC,0.0916
ACTATCCC,-0.0072
AGCAACCA,-0.228
GGCATTAC,0.06
ATCCCTGG,-0.154
TAACCGGA,0.145
AGATAAGC,-0.0315
CGAATGTC,-0.0319
ACTTTCAA,-0.0652
GTCGGTTA,0.101
ACTTCGCT,-0.0751
ATGGATGA,-0.145
GTTCCGGA,0.119
AGGTATGG,-0.107
CAAATCGA,-0.177
AACTATAG,-0.151

# Set 2 — technique: RNA Bind-n-Seq; molecule type: RNA; matrix: in vitro; concentration: 200 nM; notes: whole 134-nt RNA, ends assumed; together with: 150 mM LiCl; reference: input library; direction: higher = stronger binding; each molecule: 7-deaza-guanosine replaces G
# Target: Fragile X messenger ribonucleoprotein 1, C-terminal low-complexity region (Fmr1, Mus musculus, UniProt P35922)
Oligonucleotide,log2 enrichment
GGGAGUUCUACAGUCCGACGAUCUGGCCCUGGUGGCAUGCGGGGAGGAAGAGGUGGCCUCAUGGAUCGUGAUGGUCCCGGUGGAAUGUUCAGAGGUGGCCGUGGUGGAGACAGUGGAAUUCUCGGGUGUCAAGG,-0.605
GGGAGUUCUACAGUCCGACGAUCUCAAGUCCUGUGCUACACAUCGUAUGUACCGAAUCGGUUUUUUUGGAAAGGUGGAAAGUAUUAUGUUACGCCGUUCGGAUCUGCACUUCCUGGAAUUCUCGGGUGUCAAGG,-0.549
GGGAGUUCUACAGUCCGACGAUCUGGGAGGUGGAUUUUGUUUAUUUUUUUAGCUCAUUUCCAAGGGUGGGAAUUUUUUUUUAAUAUGUGUCAUGAAUAAAGUUGUUUUUGAAAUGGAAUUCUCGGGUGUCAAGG,0.718
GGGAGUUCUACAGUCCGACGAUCGUCCUGUGCUACACAUCGUAUGUACCGAAUCGGGAAAAAAAGGGUUUGGGAAAAAGGGAAAGUAUUAUGUUACGCCGUUCGGAUCUGCACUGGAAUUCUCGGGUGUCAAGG,-2.34
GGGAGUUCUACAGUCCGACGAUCGCAGGAAGUAAAAACAAAUGGAAAUGCUUCGGAUAGGGGCAGGGGUGGGGGUUGCUAAGGAAAGGGUGGGAUGGGAGUGGGUAAAGAGUUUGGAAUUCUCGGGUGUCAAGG,1.34
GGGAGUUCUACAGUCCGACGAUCUCCUGUGCUACACAUCGUAUGUACCGAAUCGGGGUUUUUGGGGUGGGGUUUUUUUGGGGAAAGUAUUAUGUUACGCCGUUCGGAUCUGCAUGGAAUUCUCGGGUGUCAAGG,-1.46
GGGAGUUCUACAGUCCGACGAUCAGUCCUGUGCUACACAUCGUAUGUACCGAAUCGGCCCCGGGGCCCCGGGGCCCCGGGAAAGUAUUAUGUUACGCCGUUCGGAUCUGCACUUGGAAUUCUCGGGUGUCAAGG,-1.87
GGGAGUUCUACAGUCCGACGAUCCCUGUGCUACACAUCGUAUGUACCGAAUCGGGAAAAAAAGGAAAAAAAGGGAAAAAAAGGAAAGUAUUAUGUUACGCCGUUCGGAUCUGCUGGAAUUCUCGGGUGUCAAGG,-0.181

# Set 3 — technique: RNAcompete; molecule type: RNA; matrix: in vitro; concentration: 20 nM; notes: 7-mer, probes averaged, single round; reference: mean of 7-mers; direction: higher = stronger binding
# Target: PABPC1L2, full length, GST fusion (mouse, UniProt A0ABA7IW68)
# Construct (chain): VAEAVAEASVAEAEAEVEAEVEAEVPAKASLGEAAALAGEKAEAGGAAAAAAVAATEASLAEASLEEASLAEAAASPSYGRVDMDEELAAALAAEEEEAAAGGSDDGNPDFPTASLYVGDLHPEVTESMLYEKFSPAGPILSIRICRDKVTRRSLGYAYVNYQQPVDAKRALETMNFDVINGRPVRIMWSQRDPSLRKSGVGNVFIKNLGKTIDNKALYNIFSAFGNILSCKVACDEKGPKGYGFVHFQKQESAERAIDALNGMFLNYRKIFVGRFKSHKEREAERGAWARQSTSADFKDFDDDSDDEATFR
Oligonucleotide,7-mer Z-score
GCUCAUA,-0.0319
CACAAAU,0.644
CUCGAUC,-0.329
AGUUUCC,-0.373
CAUUGAA,0.0823
GCAGCGG,-0.0391
UCCCAGG,-0.287
ACGGUAU,-0.0844
UCUUAAA,0.599
UGGUAGG,-0.0301
CGCGUUG,-0.113
CAGGCAC,0.2
AGGAGCA,0.162
AUGUCUU,-0.188
UAAUGAG,-0.0663
AAGAAAC,1.19
CAGGAAC,0.285
GAUUAUU,-0.199
UUCGAGC,-0.258
GGGGGAA,0.347

# Set 4 — technique: RNA Bind-n-Seq; molecule type: RNA; matrix: in vitro; concentration: 365 nM; reference: no-protein control; direction: higher = stronger binding
# Target: RNA binding protein fox-1 homolog 2, RRM domain, GST-SBP tag (RBFOX2, Homo sapiens, UniProt O43251-10, residues 100-194)
# Notes: natural RNA segment, single round, ends assumed
# Construct (chain): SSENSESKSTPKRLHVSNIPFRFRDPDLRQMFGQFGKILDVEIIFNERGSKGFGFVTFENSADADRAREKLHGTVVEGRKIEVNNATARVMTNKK
Oligonucleotide,RBNS enrichment (R)
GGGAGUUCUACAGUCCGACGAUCUCAAGAACAGCUCUCCAUGGCUUUGCCUUGACUGUUGUUCCUCCCUUUGCCUUUCCCGCUCCCACUAUCUGGGCUUUGACUCCAUGGAUAUUAAAAAAGUAGAAUAUUUUUGGAAUUCUCGGGUGCCAA,0.357
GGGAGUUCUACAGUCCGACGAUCAGUGCCUAGUGGAACUGUCCACCCAGCCAGCCACUGUGUGUUAUGGUUCUGCAACCACCAGGGAGGCAGCCCGAGGUGAUGCUGCUCACCGCGCCCUACAGUACCUCAGGUGGAAUUCUCGGGUGCCAA,0.407
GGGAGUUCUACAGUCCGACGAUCCCUAAACCCACUACUGCCAAAGAACCCAGCAACAAACCUCCCGGCUAGGAGCUUUAGAAGUCUUUAUGUUCUUCCUGCCAUCAUUCCUCCUUUUCCCACAGGGAAAGAAAUGGAAUUCUCGGGUGCCAA,0.545
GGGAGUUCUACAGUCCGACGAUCCCUCUCAGCCUAGCCUCUCCUCACUCAUUUUCAACGCUGACCCUGACAGGAUCCACAGACUUCUCCAGGACCUUCCAGAGACCCUGCCAGCUGUUAGAGGACAGAGCCAGUGGAAUUCUCGGGUGCCAA,0.43
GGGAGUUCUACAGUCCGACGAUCUGACACUUCCCAAGAAGGCCAAACCUCUAACCGACAUUCCUGAAAUACGUGGCAUUAUUCUUUUUUGGAUUUCUCAUUUAUGGAAGGCUAACCCUCUGUUGACUGUAAGCUGGAAUUCUCGGGUGCCAA,0.293
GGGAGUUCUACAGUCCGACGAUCAUGUAUUCUCUUCUACAAUACAACACAUUGAAACUGUAUUUACUUGUUAUGUUGUAAUAUUUUGCUGCUGAAUUUGGGGCUACUUAUAUUCUGCAGAAAAUUAAUUGAAAUGGAAUUCUCGGGUGCCAA,0.599
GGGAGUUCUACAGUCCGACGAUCGCCAGCACAGUCCCCUCACCUCUGGCAGGGCUGCUACCUCCUCAGAGUUUCAGAAGCCCCCACAUGGGGGCUCUAGGAAUGCCGGCAUGCUGGUCUUUCCGACCUGGUGCUGGAAUUCUCGGGUGCCAA,0.346
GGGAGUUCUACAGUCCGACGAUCGAAAAAUGCAUGUGGAGAAUUAAACCCAAGUGUUUCGAAUUCAGCACACCCCCUCUCUGUCCUCAGACUGCAGUCCACACGUGCAACUUUUCUGUUUGCACGUGUUUUAUUGGAAUUCUCGGGUGCCAA,1.64

# Repeated from above (set 3):
Oligonucleotide,7-mer Z-score
CGCGUUG,-0.113
UCUUAAA,0.599
AGUUUCC,-0.373
CAUUGAA,0.0823
AUGUCUU,-0.188
AAGAAAC,1.19
